Measurements from different studies.
Parts stem from different laboratories: compare values within a part only. Positions count from the first letter of the parent shown.

Block 1
Target: Histone acetyltransferase KAT6A, winged helix 1, GST fusion (KAT6A, Homo sapiens, UniProt Q92794, residues 1-85)
Technique: protein binding microarray
Form: double-stranded DNA, one strand shown
Medium: in vitro
Concentration: not given
Notes: 8-mer, flanks averaged, mean of 2 arrays, mostly near background
Relative to: not given
Reading: higher = stronger binding
Construct (chain): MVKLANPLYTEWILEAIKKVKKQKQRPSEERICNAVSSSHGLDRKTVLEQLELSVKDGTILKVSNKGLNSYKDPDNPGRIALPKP
Strand | E-score
ATCTAGCC | 0.022
ATCCAAAT | -0.166
AAGCTGTA | -0.00058
ACACCAGA | -0.331
AATAAATT | -0.231
AGCAACTC | -0.0936
CAAAAGTG | -0.133
ACGGAGCT | 0.176
AGTCAACG | -0.0412
ATTAGCTG | -0.119
GCAGCGGC | 0.418
ACAAATAC | -0.0863
TACTTAGA | -0.126
ACATTCGG | 0.0139
AGCCCCCC | -0.0933
CAAATATC | -0.242
CATGATGG | -0.278
ACAGTATG | -0.121
CCATAACA | -0.107
CGATTTCA | -0.0423
AAGGAACT | -0.166
CGAACCCA | -0.0576
GTCGCTGA | 0.0862
ATAGTGAC | -0.062
ACCCTCGT | 0.0304

Block 2
Target: CCNB3, cyclin fold, Cln2 fusion (human)
Technique: yeast growth competition, sequencing
Medium: yeast
Notes: weak parent motif
Relative to: not given
Reading: higher = stronger binding
Starting sequence: CDC6 docking peptide (human); TLKGRRLVFDNQL
Change | normalised enrichment score
G4N | 0.0979
T1N | 0.00278
L2Y | 0.00285
L7D | -0.0172
L13M | -0.0275
N11C | 0.556
G4E | 0.349
D10F | 0.0597
Q12L | 0.434
R6P | 0.898
T1H | -0.0828
F9S | 0.0233
Q12H | 0.219
D10R | 0.271
G4I | 0.667
L7A | 0.164
V8N | 0.856
K3E | 0.385
T1Y | -0.214
V8G | 0.147

Block 3
Target: RNA binding protein fox-1 homolog 2, RRM domain, GST-SBP tag (RBFOX2, Homo sapiens, UniProt O43251-10, residues 100-194)
Technique: RNA Bind-n-Seq
Form: RNA
Medium: in vitro
Concentration: 365 nM
Notes: natural RNA segment, single round, ends assumed
Relative to: no-protein control
Reading: higher = stronger binding
Shared flanks, not repeated: GGGAGUUCUACAGUCCGACGAUC … UGGAAUUCUCGGGUGCCAA
Construct (chain): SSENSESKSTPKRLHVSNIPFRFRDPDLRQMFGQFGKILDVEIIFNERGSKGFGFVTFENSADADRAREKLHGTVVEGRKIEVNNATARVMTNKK
Strand | RBNS enrichment (R)
UUUGGUUGGGGAGCCAGCUUGGGGUGGGGAGUUUCACCUGGGCCUCCGCUCUCUAACUACAUAAACAUUUAUCUGUAUCUCUCUGUCCCGGGCUGGGGGCAGGAGGAAUC | 0.653
ACUUCGGGGAGAUUGAUUGGAUCAGAGCCAUUGGCUGGCUCUGGCUCUGCUUUUCUGCCUUCAGUUAUCUACAGAACAGCAGGUUUGCCUGAAGUGCAGCCUUCACCAGG | 0.264
AGGGACAACUUUUAAGGAGGCGUGUCCCUGGUAGGGGCAUCCCUGUUCACCAGGUGCCUGUCAUCACCCCACUUGACUGACAUCUACCCUGGUGACUAUGGGUUCCUCUU | 0.194
UUUUUAAUUUAAAGGUUAAACUUGAAGAAAGUCUUUAUUCACGGUGCCAAAAUUCAUUUUUCUAACUCUGUGUGUUAGGAAAUAAUGAAAAAUAAAAUAAUUUAAAAUAA | 0.735
UCCAACAUCACCAGCCUCGGUGACCUCAGAUGAGCCAGAUAUGCAAGAGUGAAGGAUUAUGGGAAAACGUCCAUUCCUUUUCCGUGUUUUUGAAGCCCACAGUUUUAGUU | 0.415
AAAAGAGACAAGCUCUGAGGGCAAAACCCAUACAAAUUUGGAGCAAAUAAAAGCCCAGGUCUGAGAUGUUCACACAAGCAAUUUCUCUGCACUGCUGUGUGGGCCGUGCA | 0.664
UCCUGUCCUUCCCCUCAUCUCUUCCUGGGGUUUCAAGACCAAAGGCAAUGAGGAGAUACACGAUUCUGAAAGGUCAUCUGAAGCCUGAAACCCCUAGAGCAACCCCCUCU | 0.381
UAAAUAUCUCUCAGGAAUGGAAGUGUCAAUGAGUAGUCAGUAUUACUAUACUCUUGUUUGUAAGAAUAUAUUUUCCUUAUUGUUGGAGUCUCCAGAGGUUAUUGGAAGGA | 0.524
CAUAUAGGGACCCCACCAAGAGGCUCUCCUCUCCCCUUCUUAAUCCCAGUAUAGACUGAGUGUCCACUUCAGCAAAGGUGUUUUCAUCCCAGCCUUGGUUUGGAGCUUGC | 0.511
UGGUAUGAAGAAUAUCUGAUAUGCGACUCCUAUGAAAGGGUCGUUUGACCCCACCCCCAACCCCAAUUGGGUCACGAACAACAGGUUGAGAACUGCUGCUCUAAGGCCUU | 0.203
UUGUUUUCCUCUCACUAUUUAAAGUUGACUAGAAGAGAAGAGUUGUGUGUUGAGGCUAAGUUGGUGGGUUGGGUUGGCUUCUUAACAUCAAGAAACUGAAUGGAGCUCCA | 0.609
GACCUUGCAAAUUCAGCCGCUGCUUUGAGCCCAAAAUGGGAAUAUUGGUUUUGUGUCCGAGGCUUGUUCCAAGUUUGUCAAUGAGGUUUAUGGAGCCUCCAGAACAGAUG | 1.29

Block 4
Target: Interferon regulatory factor 7, full length, phosphomimetic (IRF7, Homo sapiens, UniProt Q92985, residues 1-503, S101K/S471D/S472D/S475D/S476D/S477D/S483D/S484D/S487D)
Chain of UniProt Q92985 (whole entry, unmodified, looked up): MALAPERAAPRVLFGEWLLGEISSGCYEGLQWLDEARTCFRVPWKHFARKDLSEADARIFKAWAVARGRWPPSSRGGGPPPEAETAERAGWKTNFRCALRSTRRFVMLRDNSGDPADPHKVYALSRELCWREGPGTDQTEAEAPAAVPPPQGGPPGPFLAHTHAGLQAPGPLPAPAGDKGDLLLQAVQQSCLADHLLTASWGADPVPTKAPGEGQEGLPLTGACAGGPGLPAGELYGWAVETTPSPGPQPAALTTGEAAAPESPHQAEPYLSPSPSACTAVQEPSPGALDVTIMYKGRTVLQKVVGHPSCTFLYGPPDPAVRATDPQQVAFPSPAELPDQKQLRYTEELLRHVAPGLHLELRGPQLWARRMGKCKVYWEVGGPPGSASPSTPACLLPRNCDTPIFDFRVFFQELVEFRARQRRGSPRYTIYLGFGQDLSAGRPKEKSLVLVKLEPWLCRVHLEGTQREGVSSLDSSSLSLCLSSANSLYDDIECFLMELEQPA
Technique: protein-binding microarray
Form: double-stranded DNA, one strand shown
Medium: in vitro
Concentration: 250 nM
Notes: 60-bp whole probe
Together with: salmon DNA 0.4 mg/ml
Relative to: random background probes
Reading: higher = stronger binding
Shared flanks, not repeated: GCCTAGCAC … GTCTTGATTCGCTTGACGCTGCTG
Strand | log fluorescence [z-score]
TCAATTATATATATCATACTGTGCTAG | 0.53
TTAGGTCTCGGTCTCGGTTGGTGCTAG | 2.55
TTGGGTCTCGGACTGGGTTAGTGCTAG | -0.072
TCATTCATGAAATTTTAGACTGTGCTA | 0.514
CCAGAGTCCTGTTTGATAATGTGCTAG | 0.616
TTAGGTCTCGGGCTGGGTTAGTGCTAG | -0.0168
TTAAGTATCCTTATCCTTTAGTGCTAG | 0.69
TCAGCTTTCCTGATGGTACTGTGCTAG | -0.211
TTAGGTATCGGTATCGGTCAGTGCTAG | 1.41
CAGAAAATGGAAACTCGTATGGTGCTA | 1.01

Block 5
Target: Eukaryotic initiation factor 4A-I (EIF4A1, Homo sapiens, UniProt P60842, residues 1-406, full length assumed)
Chain of UniProt P60842 (whole entry, looked up): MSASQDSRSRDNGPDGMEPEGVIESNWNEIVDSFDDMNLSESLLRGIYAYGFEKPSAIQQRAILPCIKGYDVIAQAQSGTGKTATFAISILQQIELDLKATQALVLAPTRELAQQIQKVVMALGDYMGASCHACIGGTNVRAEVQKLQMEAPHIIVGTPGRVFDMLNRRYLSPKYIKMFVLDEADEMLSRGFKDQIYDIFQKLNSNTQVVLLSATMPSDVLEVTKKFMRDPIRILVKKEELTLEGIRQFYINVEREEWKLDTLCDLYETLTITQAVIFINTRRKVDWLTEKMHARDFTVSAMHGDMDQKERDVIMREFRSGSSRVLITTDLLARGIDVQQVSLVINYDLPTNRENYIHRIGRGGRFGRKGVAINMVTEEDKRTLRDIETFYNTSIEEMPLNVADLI
Technique: RNA Bind-n-Seq
Form: RNA
Medium: in vitro
Concentration: not given
Notes: 4-mer, random 30-nt RNA, single round
Together with: RocA, ADP, phosphate
Relative to: input library
Reading: higher = stronger binding
Strand | 4-mer enrichment
GUGG | 1.31 fold
GCAG | 0.98 fold
CUAC | 0.565 fold
ACGG | 0.876 fold
GACG | 0.86 fold
UUGU | 0.968 fold
GCGC | 0.74 fold
UCUA | 0.621 fold
AGUC | 1.03 fold
GUUU | 1.14 fold
UAGU | 0.972 fold
UGCC | 0.612 fold
UGGG | 1.24 fold
CGCA | 0.686 fold
ACAC | 0.649 fold

Block 6
Target: Hepatocyte nuclear factor 3-alpha (Foxa1, Mus musculus, UniProt P35582, residues 1-468, full length assumed)
Technique: EMSA with sequencing
Form: double-stranded DNA, one strand shown
Medium: in vitro
Concentration: 10 and 20 nM
Notes: whole designed probe, mean of two concentrations, ends assumed
Relative to: negative control set to 0
Reading: higher = stronger binding
Shared flanks, not repeated: GTGAGCGGTGCCCATTGATGGGGAAC … TTTCACTGGGATCGTGGGGAC
Target sequence (chain): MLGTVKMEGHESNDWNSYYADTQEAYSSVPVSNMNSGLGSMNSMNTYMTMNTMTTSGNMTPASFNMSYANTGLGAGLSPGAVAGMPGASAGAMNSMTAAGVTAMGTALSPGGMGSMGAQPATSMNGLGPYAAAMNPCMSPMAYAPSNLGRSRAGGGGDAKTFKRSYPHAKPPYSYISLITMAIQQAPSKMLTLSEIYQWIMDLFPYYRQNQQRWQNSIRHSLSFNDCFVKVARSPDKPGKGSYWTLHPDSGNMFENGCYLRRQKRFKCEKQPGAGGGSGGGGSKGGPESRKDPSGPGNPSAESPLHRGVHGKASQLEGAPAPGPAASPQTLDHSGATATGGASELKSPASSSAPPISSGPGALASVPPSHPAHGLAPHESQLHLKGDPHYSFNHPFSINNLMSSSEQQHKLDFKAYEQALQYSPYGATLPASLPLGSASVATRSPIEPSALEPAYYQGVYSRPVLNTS
Strand | normalised bound fraction [ratio]
ATCACTGGTTCTCAAAGCAAAGTTTACAAAGACCAGGGTCATCCTGAGAGTATGTGGGCAGATTACATGGTGCACTTGACCCTTGCTCCTTTGTGTTTACACAGGCAGAGTCAGGCCAGACTACATGCCAGGGTGACCTTAAGAGAGAAAAGAGGCCAGGCATGGTGGCTCATACCTGTAATCCTAGCACTTT | 0.405
GGTATAACTAAACAAACAAACAAACAAAAAGATACTAAAGATACCGTCTATAATTGGACCCAGGTCAGTGGTGCCTCCAGGGTCCTGGCCAAAGTCAACACAGGGGGTTTGGAAGCGGAAGATAATATCAACAATGGCTAACACATTCAACGCACAAAACAGAATCCTGTTAGAACAGGTGAGAAGTAGGGCT | 0.552
GTGCTGAATGCATGTAAATTGCTTTCCTTCAAAAATACGTAACTAGGAAGAGCAGAGTACTATGTAATTTTGCTAATCACATGCTTTACTAAGTAATCTAAGAATACTTTAGGATAGATTTTATTTAAAGTCATCACCTTTCATAATCATTTTATTCTGCATCATAATTTCTTAATCAGGTAATGTAATTATA | -0.0151
CTTACATGCAATTGCTTAATATAATATAGCTTTCCTCTCAATTTTACAAAATTAAGATCTTACTTGGCTAATTCTAAGACACCTAGGAACAGTGTAAATATGGCTCAGAATTGCCAGTGCCCAGACTGGAATTTCACTGAATGAATATAATCATTTTCTCCTTAAAGTAACCTAAAATAAACCCCTCCAAAAA | 0.105
CAATTTCTTAAGCTCAAAGTTAATGTTTTCTTTTTCTTTTTTATCTTTTTCTCACTTTTGGTTCCTTTTGATAGCTTTTGGGGAGAAAAAATATGTAATCTTGCATTTACTCGTCATATTTCTTGAAGTCAAGACCTTTCACAAACCTGTTTGAAGTATTTTATAGTTCCTGACATCTTTTACAATAAATAAT | 0.116
